Measured values gathered from unrelated publications.
Each line is one published result; not all experiments were run side by side. Numbers after ± are the reported error. In brackets after ≈: the same amount, converted by molar mass.
Organism: Mycobacterium tuberculosis

COc1ccc(-c2cc(C(F)(F)F)c3c(N)c(C(=O)NCCc4ccccc4)sc3n2)cc1 — selectivity index (H37Rv wild type; reference: HepG2 IC50 over M. tuberculosis IC90): < 1
Cc1nc2ccc(CN(C)c3ccc(C(=O)N[C@@H](CCC(=O)O)C(=O)O)s3)cc2c(=O)[nH]1 — MIC90 (bacterial growth, inhibitor; H37Rv wild type): > 100 µM
O=C(O)c1cc2[nH]c(=S)n(Cc3cccnc3)c(=O)c2cc1Cl — MIC90 (PptT conditional knockdown): > 100 µM
COc1ccc(-c2cc(C(F)(F)F)c3c(N)c(C(=O)NC4COC4)sc3n2)cc1 — IC50 (growth inhibition; H37Rv LepB under-expressing): > 100 µM
Cc1ccc(OCCc2cccc(F)c2)c(C(N)=O)c1 — IC90 (growth; H37Rv-LP; 120 h): 0.62 ± 0.18 µM
O=c1c2cccc(Cl)c2[nH]c(=S)n1Cc1cccnc1 — MIC90 (PptT conditional knockdown): 73.2 µM (≈ 22.2 µg/mL)
CC(=O)c1ccc(OCCc2cccc(F)c2)c(C(N)=O)c1 — IC90 (growth; H37Rv-LP; 120 h): 3.6 ± 0.38 µM
Cn1c(SCc2ccc(Cl)cc2)nnc1-c1cncc(C#Cc2ccccc2)c1 — IC50 (bacterial growth; Erdman wild type): 4 µM
Nc1c(C(=O)N2CCOCC2)sc2nc(-c3ccoc3)ccc12 — IC90 (H37Rv wild type; 120 h): inactive
COCCNC(=O)c1cc(-c2ccoc2)ccc1OCCc1cccc(F)c1 — selectivity index (H37Rv-LP; reference: HepG2 CC50 over Mtb IC90): > 2
O=c1c2cc(Cl)ccc2oc(=S)n1Cc1cccnc1 — MIC90 (PptT conditional knockdown): 27.2 µM (≈ 8.29 µg/mL)
COc1ccc(-c2cc(C(F)(F)F)c3c(N)c(C(=O)N4CC5(CCOC5)C4)sc3n2)cc1 — IC50 (growth inhibition; H37Rv LepB under-expressing): 12 ± 10 µM
O=c1c2nc(Cl)ccc2[nH]c(=S)n1Cc1cccnc1 — MIC90 (PptT conditional knockdown): 3.9 µM (≈ 1.19 µg/mL)
Nc1c(C(=O)N2CCOCC2)sc2nc(-c3ccccc3)ccc12 — IC50 (growth inhibition; H37Rv LepB under-expressing): 14 ± 3 µM
CNC(=O)c1cc(-c2ccoc2)ccc1OCCc1cccc(F)c1 — IC90 (growth; H37Rv-LP; 120 h): 0.85 ± 0.7 µM
CC(C)c1ccc2[nH]c(=S)n(Cc3cccnc3)c(=O)c2c1 — MIC90 (PptT conditional knockdown): 7.6 µM (≈ 2.37 µg/mL)
Nc1cccc(F)c1C(=O)NNc1cccc(F)c1 — MIC99 (H37Rv; 336 h): 1.56 to 2.84 µM (≈ 0.411 to 0.748 µg/mL)
NNC(=O)c1ccncc1 — IC80 (THP-1 macrophages, H37Rv-GFP; 96 h): 0.12 µM
C=C(C)c1ccc(OCCc2cccc(F)c2)c(C(N)=O)c1 — selectivity index (H37Rv-LP; reference: HepG2 CC50 over Mtb IC90): 71
Nc1c(C(=O)NC23CC4CC(CC(C4)C2)C3)sc2nc(-c3ccc4c(c3)OCO4)cc(C(F)(F)F)c12 — IC50 (growth inhibition; H37Rv LepB under-expressing): 0.27 ± 0.1 µM
Cc1nc(OCCc2cc(F)cc(F)c2)c(C(=O)NC(C)C)s1 — IC90 (growth; H37Rv-LP; 120 h): 59 ± 17 µM
NC(=O)c1cc2[nH]c(=S)n(Cc3cccnc3)c(=O)c2cc1Cl — MIC90 (PptT conditional knockdown): 1.04 µM (≈ 0.361 µg/mL)

Excerpt of the above:
Nc1c(C(=O)N2CCOCC2)sc2nc(-c3ccccc3)ccc12 — IC50 (growth inhibition; H37Rv LepB under-expressing): 14 ± 3 µM
O=c1c2cc(Cl)ccc2oc(=S)n1Cc1cccnc1 — MIC90 (PptT conditional knockdown): 27.2 µM (≈ 8.29 µg/mL)
